Measured values of several laboratories.
A part holds a random share of what one study measured. Values joined by “and” are separate records of one study, mostly repeats; a detail may differ.
UniProt O14730, sequence (whole entry, looked up): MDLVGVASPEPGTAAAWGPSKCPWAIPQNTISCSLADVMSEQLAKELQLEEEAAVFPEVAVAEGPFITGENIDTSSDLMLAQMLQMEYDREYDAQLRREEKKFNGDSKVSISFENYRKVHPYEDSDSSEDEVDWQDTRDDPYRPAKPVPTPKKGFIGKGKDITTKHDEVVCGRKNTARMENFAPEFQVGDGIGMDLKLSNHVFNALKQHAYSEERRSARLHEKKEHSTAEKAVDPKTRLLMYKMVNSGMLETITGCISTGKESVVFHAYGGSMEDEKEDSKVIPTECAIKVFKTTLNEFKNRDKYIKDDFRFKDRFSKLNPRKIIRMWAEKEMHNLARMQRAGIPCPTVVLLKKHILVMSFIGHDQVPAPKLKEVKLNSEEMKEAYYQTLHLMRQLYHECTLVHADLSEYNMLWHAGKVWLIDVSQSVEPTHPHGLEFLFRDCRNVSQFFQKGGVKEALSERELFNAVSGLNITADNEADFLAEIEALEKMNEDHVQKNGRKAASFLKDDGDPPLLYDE
UniProt Q96Q40, sequence (whole entry, looked up): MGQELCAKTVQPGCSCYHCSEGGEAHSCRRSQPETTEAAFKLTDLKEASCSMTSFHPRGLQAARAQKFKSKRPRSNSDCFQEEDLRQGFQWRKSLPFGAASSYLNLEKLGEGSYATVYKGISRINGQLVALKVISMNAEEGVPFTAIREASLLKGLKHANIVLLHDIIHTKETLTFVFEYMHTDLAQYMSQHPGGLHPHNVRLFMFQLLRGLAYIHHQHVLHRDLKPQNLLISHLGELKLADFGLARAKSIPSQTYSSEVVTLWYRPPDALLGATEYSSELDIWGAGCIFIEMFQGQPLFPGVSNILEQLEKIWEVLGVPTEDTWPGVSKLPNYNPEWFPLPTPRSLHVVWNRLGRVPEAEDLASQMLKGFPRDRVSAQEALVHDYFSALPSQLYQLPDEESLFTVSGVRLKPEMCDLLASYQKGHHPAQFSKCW
UniProt P51451, sequence (whole entry, looked up): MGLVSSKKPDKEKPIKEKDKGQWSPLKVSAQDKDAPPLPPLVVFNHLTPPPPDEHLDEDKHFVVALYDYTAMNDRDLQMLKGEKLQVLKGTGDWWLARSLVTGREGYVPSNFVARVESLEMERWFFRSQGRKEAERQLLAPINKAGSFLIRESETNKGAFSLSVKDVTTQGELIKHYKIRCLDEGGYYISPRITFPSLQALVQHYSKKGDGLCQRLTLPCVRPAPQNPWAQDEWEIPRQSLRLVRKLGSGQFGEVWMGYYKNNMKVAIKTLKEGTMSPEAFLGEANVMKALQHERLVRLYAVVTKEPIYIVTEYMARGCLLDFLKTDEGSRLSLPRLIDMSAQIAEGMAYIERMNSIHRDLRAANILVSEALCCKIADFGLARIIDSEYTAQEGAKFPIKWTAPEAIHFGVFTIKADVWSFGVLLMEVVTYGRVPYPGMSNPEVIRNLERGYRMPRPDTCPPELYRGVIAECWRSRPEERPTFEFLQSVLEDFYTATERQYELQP
UniProt Q13705, sequence (whole entry, looked up): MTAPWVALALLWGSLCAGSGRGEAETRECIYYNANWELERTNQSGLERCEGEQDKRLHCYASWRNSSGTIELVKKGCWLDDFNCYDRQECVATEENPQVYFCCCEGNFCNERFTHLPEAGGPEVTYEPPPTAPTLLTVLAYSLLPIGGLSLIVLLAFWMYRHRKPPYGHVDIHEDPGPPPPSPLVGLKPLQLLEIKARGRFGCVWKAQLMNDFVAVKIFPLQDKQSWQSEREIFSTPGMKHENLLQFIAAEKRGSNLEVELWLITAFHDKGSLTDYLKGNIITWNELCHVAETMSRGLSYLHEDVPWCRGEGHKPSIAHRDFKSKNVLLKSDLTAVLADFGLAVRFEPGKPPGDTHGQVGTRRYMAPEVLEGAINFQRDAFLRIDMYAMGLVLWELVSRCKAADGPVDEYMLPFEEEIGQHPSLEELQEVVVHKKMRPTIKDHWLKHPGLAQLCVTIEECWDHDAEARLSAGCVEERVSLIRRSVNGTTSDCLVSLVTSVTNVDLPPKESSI
UniProt P27037, sequence (whole entry, looked up): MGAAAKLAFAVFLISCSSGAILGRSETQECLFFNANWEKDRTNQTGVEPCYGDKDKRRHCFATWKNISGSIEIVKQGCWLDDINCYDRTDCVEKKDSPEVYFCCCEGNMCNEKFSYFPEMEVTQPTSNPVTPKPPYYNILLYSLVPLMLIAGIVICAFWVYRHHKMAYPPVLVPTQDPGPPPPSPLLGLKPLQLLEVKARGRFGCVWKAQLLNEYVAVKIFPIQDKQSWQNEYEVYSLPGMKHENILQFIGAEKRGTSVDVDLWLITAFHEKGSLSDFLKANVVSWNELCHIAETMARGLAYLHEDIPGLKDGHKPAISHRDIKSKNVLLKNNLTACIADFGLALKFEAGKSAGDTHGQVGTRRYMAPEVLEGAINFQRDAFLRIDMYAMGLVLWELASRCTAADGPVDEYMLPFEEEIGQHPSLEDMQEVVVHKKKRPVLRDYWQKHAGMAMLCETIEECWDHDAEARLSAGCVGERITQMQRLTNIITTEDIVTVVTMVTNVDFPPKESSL
UniProt Q9HC98, sequence (whole entry, looked up): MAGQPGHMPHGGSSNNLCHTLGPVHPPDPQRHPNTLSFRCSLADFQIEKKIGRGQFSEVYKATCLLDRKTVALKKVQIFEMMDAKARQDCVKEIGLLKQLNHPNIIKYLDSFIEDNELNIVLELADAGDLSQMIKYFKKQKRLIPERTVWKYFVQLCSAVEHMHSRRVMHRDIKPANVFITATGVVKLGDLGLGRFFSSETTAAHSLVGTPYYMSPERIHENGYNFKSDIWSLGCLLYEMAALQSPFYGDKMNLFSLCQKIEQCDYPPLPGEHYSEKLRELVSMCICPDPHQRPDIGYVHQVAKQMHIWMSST
UniProt P07948, sequence (whole entry, looked up): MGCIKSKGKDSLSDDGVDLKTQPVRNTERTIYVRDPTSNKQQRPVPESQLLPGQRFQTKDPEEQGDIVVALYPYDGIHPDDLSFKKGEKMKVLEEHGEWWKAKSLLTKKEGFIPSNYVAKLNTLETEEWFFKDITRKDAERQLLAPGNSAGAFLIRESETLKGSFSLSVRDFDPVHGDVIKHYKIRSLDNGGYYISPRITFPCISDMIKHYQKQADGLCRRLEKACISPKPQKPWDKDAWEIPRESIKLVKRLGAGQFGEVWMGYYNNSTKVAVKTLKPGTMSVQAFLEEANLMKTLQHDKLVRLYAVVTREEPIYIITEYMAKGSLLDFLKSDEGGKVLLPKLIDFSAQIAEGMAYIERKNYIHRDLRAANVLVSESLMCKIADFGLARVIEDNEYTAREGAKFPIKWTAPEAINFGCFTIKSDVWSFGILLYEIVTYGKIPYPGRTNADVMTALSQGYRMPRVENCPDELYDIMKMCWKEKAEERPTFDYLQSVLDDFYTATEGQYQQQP

Block 1
SMILES: Cc1noc([C@H]2C[C@@H](c3ccc(C(F)(F)F)cc3)CN(C(=O)N3CCS(=O)(=O)C3)C2)n1
Technique: competition with immobilised ligand
Concentration: 1 µM
Endpoint: remaining binding
CDK2 (Homo sapiens, UniProt P24941); cell-free assay: 100%
ACVR2B (Homo sapiens, UniProt Q13705); binding: 100%
IRAK3 (Homo sapiens, UniProt Q9Y616); cell-free assay: 100%
CDK15 (Homo sapiens, UniProt Q96Q40); cell-free assay: 100%
BLK (Homo sapiens, UniProt P51451); cell-free assay: 100%
PKN2 (Homo sapiens, UniProt Q16513); cell-free assay: 100%
LYN (Homo sapiens, UniProt P07948); cell-free assay: 100%
Ribosomal protein S6 kinase alpha-3, C-terminal kinase domain (RPS6KA3, Homo sapiens, UniProt P51812); cell-free assay: 100%
NEK6 (Homo sapiens, UniProt Q9HC98); cell-free assay: 100%
Myosin-IIIa (MYO3A, Homo sapiens, UniProt Q8NEV4); binding: 100%
FLT3 (Homo sapiens, UniProt P36888, K663Q); cell-free assay: 100%
DSTYK (Homo sapiens, UniProt Q6XUX3); cell-free assay: 94%
PAK1 (Homo sapiens, UniProt Q13153); cell-free assay: 79%
RIOK3 (Homo sapiens, UniProt O14730); cell-free assay: 100%
ACVR2A (Homo sapiens, UniProt P27037); cell-free assay: 100%
SGK2 (Homo sapiens, UniProt Q9HBY8); cell-free assay: 100%
CLK2 (Homo sapiens, UniProt P49760); cell-free assay: 100%

Block 2
Structure (SMILES): C=CCc1ccc(O)c(-c2ccc(O)c(CC=C)c2)c1
Target: Anoctamin-1 (ANO1, Homo sapiens, UniProt Q5XXA6, del476-501)
UniProt Q5XXA6, sequence (whole entry, unmodified, looked up): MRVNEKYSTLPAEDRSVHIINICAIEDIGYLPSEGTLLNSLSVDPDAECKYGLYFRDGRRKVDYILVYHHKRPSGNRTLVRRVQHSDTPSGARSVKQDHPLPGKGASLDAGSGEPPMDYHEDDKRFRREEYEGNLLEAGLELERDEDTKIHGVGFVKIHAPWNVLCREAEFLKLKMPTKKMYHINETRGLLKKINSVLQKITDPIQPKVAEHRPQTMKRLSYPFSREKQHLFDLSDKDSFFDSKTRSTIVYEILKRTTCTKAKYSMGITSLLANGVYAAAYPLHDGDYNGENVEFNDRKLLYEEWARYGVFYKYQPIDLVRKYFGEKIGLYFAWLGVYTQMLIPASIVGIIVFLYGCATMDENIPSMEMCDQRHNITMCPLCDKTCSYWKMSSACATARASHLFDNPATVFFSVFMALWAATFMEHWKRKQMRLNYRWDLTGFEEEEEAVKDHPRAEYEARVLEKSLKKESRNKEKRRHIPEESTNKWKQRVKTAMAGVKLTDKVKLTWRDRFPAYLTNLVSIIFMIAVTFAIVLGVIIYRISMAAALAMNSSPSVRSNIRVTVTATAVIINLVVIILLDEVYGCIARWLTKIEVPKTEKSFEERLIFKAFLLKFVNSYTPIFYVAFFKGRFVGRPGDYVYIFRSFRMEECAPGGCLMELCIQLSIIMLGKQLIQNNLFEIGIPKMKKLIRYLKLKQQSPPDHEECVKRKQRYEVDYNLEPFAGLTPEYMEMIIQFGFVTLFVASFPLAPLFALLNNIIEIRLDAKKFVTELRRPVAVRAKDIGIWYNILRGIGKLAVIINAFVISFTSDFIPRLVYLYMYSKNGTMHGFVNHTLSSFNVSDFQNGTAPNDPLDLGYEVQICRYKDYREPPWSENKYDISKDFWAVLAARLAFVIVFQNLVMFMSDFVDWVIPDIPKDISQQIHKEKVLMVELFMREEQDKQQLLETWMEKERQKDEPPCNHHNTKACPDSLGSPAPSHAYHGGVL
Effect on: chloride current
Technique: whole-cell patch clamp
Endpoint: normalised current
1 µM, 20 mV, 300 nM free Ca2+, added: honokiol and magnolol 10 µM: 0.0595
3 µM, 80 mV, 300 nM free Ca2+: 0.425 and 0.447
30 µM, 60 mV, 300 nM free Ca2+: 0.0397 and 0.0379
30 µM, 0 mV, 300 nM free Ca2+: -0.0002
3 µM, 60 mV, 300 nM free Ca2+, added: honokiol and magnolol 10 µM: 0.149
1 µM, -40 mV, 300 nM free Ca2+, added: honokiol and magnolol 10 µM: -0.0662
10 µM, 40 mV, 300 nM free Ca2+: 0.0588 and 0.056
3 µM, -40 mV, 300 nM free Ca2+, added: honokiol and magnolol 10 µM: -0.0247
10 µM, 60 mV, 300 nM free Ca2+: 0.123 and 0.117
1 µM, 0 mV, 300 nM free Ca2+: -0.0017
30 µM, 20 mV, 300 nM free Ca2+: 0.0067 and 0.0071
30 µM, -60 mV, 300 nM free Ca2+, added: honokiol and magnolol 10 µM: -0.0059
3 µM, -60 mV, 300 nM free Ca2+, added: honokiol and magnolol 10 µM: -0.0288
30 µM, 40 mV, 300 nM free Ca2+, added: honokiol and magnolol 10 µM: 0.0136
3 µM, 100 mV, 300 nM free Ca2+: 0.701 and 0.667

Block 3
Target: Calcium/calmodulin-dependent protein kinase type II subunit alpha (CAMK2A, Homo sapiens, UniProt Q9UQM7)
UniProt Q9UQM7, sequence (whole entry, looked up): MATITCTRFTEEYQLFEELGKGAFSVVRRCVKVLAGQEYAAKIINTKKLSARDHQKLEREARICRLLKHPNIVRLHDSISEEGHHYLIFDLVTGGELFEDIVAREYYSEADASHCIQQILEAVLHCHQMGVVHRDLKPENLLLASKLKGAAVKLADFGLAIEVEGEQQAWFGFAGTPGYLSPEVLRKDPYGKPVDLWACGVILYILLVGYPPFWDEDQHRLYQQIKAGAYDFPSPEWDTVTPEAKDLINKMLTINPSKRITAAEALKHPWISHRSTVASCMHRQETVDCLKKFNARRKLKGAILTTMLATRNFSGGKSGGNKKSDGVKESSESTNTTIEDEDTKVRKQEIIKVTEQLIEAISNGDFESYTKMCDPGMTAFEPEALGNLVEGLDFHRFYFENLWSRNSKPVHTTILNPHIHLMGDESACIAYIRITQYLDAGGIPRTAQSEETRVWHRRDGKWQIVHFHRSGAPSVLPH
Effect on: enzyme activity
Mode: inhibitor
Concentration: 0.5 µM
Reference: control
Endpoint: remaining activity
COc1ccc(COc2ccc(Cc3cnc(N)nc3N)cc2OC)cc1: 105%
COc1ccc2c(c1)c(C1=C(c3c[nH]c4ccccc34)C(=O)NC1=O)cn2CCCN(C)C: 102%
O=C(c1cc2cc(O)ccc2[nH]1)c1cc2cc(O)ccc2[nH]1: 74.5%
CN1CCN(c2ccc3nc(-c4c(N)c5c(F)cccc5[nH]c4=O)[nH]c3c2)CC1: 53.9%
O=C1NC(=O)c2c1c1c3ccccc3[nH]c1n1cncc21: 55.1%
O=C1Cc2c([nH]c3ccc(Br)cc23)-c2ccccc2N1: 105%
O=c1cc(N2CCOCC2)oc2c(-c3ccccc3)cccc12: 91.1%
c1ccc(-c2n[nH]c3c2oc2ccccc23)cc1: 110%
c1ccc2c(-c3ccncc3)c[nH]c2c1: 104%
O=C1NC(=O)c2c1c1c3ccccc3[nH]c1c1[nH]c3cc(Br)ccc3c21: 78.3%

Block 4
Species: human
Sample: microsomes or S9
Concentration: 2 µM
Time: 0.5 h
Endpoint: remaining compound
COc1cc(OC)c(OC)c(C(c2sc3nc(C)nn3c2O)N2CCN(C)CC2)c1 (stereo not shown): > 100%
CC1c2cc3c(cc2C2(CCCC2)CN1C(=O)c1ccncn1)OCCO3 (stereo not shown): 1.4%
CC(NC(=O)Nc1ccc(F)cc1Br)c1cn[nH]c1 (stereo not shown): 92.3%
CC(C)(C)Nc1ncc(-c2cn[nH]c2)cc1-c1nc2ccccc2o1: 99.1%
COc1ccc(-n2ccc3cc(NC(=O)N4CCOCC4)ccc32)cc1Cl: 69.3%
O=C1CCCC2=C1C(c1ccco1)Nc1ccc3ccccc3c12 (stereo not shown): 38.6%
Cc1cccc(NC(=O)C2ON=CC2C(=O)N2CCOCC2)c1 (stereo not shown): 97%
CC(C)Cn1c(C(C)C)nnc1N1C[C@@H]2CCS(=O)(=O)[C@@H]2C1: 89.4%
Cn1ncc2cc(NC(=O)N3C[C@H]4CC=CC[C@H]4C3)ccc21: 95.6%
Cc1n[nH]c(-c2ccccc2)c1-c1nc2ccccc2n1Cc1ccccc1: 10.4%
COC[C@@H]1[C@H](NC(=O)CCN2CCCO2)[C@@H]2CCO[C@H]12: 67.6%
COCCCNC1=NCCNC12CCN(S(=O)(=O)c1ccc(F)cc1)CC2: 88%
Cc1nc(C2CC2)nc2sc(C(=O)NC3(C#N)CCCC3)c(N)c12: 33.7%
OC1CCC(Nc2nc(-c3ccncc3)nc3c2CCC3)CC1 (stereo not shown): 73.9%
CCOc1cc(C(=O)Nc2[nH]nc(C)c2-c2ccc(OC)c(OC)c2)cc(OCC)c1OCC: 17.6%
O=C(CN1CCOCC1)N1CCC(c2nc(CCOCC3CCOCC3)no2)C1 (stereo not shown): > 100%
CCc1cccc(C)c1/N=C1/N=C(N2CCOCC2)N(c2ccc(C)cc2)C12CCCCC2: 89.4%
CN(CC1COc2ccccc2O1)C(=O)C1CCC(=O)NC1 (stereo not shown): 91%
N#Cc1ccc2nc(N3CCc4c(ncn4-c4ccccc4)C3)ccc2c1: > 100%

Repeated from above (block 3):
O=C1Cc2c([nH]c3ccc(Br)cc23)-c2ccccc2N1: 105%
O=C1NC(=O)c2c1c1c3ccccc3[nH]c1n1cncc21: 55.1%
COc1ccc2c(c1)c(C1=C(c3c[nH]c4ccccc34)C(=O)NC1=O)cn2CCCN(C)C: 102%
c1ccc(-c2n[nH]c3c2oc2ccccc23)cc1: 110%
O=c1cc(N2CCOCC2)oc2c(-c3ccccc3)cccc12: 91.1%
